Assay results of several laboratories.
A part holds a random share of what one study measured. Positions count from the first letter of the parent shown.

Block 1
Target: CCND3, cyclin fold, Cln2 fusion (human)
Method: yeast growth competition, sequencing
Medium: yeast
Setting: weak parent motif
Reference: not given
Reading: higher = stronger binding
Parent: MASTL docking peptide (human); PMIAKNLMCELDE
| Substitution | normalised enrichment score |
| --- | --- |
| PMIAVNLMCELDE [K5V] | 0.105 |
| PMIAKNLMCENDE [L11N] | -0.0427 |
| PMHAKNLMCELDE [I3H] | -0.175 |
| PMIAENLMCELDE [K5E] | 0.00454 |
| PMIGKNLMCELDE [A4G] | -0.0453 |
| PMIAKNLMCEDDE [L11D] | -0.326 |
| PMIAKNLMCGLDE [E10G] | -0.112 |
| PMIAKNLNCELDE [M8N] | -0.125 |
| PGIAKNLMCELDE [M2G] | 0.0477 |
| PMIAINLMCELDE [K5I] | 0.0582 |
| PMIAKNQMCELDE [L7Q] | 0.0697 |
| PMIAKNLMIELDE [C9I] | -0.242 |
| PMIAKNLMPELDE [C9P] | -0.059 |
| PMMAKNLMCELDE [I3M] | 0.0539 |
| PMIAFNLMCELDE [K5F] | -0.147 |
| PMYAKNLMCELDE [I3Y] | 0.477 |
| PMIAKNLMCECDE [L11C] | -0.0176 |
| PMIMKNLMCELDE [A4M] | -0.0223 |
| PMIAKNLMCELSE [D12S] | -0.0351 |
| PMIANNLMCELDE [K5N] | 0.0778 |
| PMIIKNLMCELDE [A4I] | 0.161 |

Block 2
Target: CEP164, C-terminal peptide (human)
Method: DHFR complementation, deep sequencing
Medium: yeast
Setting: single substitutions, model-inferred values
Reference: wild type
Reading: higher = weaker binding
Parent: PDZK1, PDZ domain 2 (human); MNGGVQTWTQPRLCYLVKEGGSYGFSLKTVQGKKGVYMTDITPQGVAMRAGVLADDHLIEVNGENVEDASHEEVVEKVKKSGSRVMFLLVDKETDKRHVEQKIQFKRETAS; partner HNRVKVYRF
| Substitution | binding free energy change [kcal/mol] |
| --- | --- |
| Q31P | -0.175 |
| S70C | 0.00457 |
| V61G | 1.51 |
| F105P | -0.135 |
| L16G | 1.46 |
| D56K | 1.17 |
| G63Y | 0.0353 |
| D40M | 0.938 |
| V36R | 1.35 |
| A47Y | 0.697 |
| G20M | 0.381 |
| D68K | -0.00524 |
| G63M | 0.305 |
| R97F | -0.173 |
| G20P | 1.08 |
| G82S | 0.677 |
| P11A | 0.0411 |
| T42E | 0.0188 |
| G45R | 1.15 |
| E64G | 0.317 |
| G45M | 0.628 |
| Y23W | 0.781 |
| D91Y | 0.0784 |
| G32R | 0.553 |
| E100R | -0.0652 |

Block 3
Target: Interferon regulatory factor 3, full length, phosphomimetic (IRF3, Homo sapiens, UniProt Q14653, residues 1-427, S386D/S396D/S398D/S402D/T404D/S405D)
UniProt Q14653, sequence (whole entry, unmodified, looked up): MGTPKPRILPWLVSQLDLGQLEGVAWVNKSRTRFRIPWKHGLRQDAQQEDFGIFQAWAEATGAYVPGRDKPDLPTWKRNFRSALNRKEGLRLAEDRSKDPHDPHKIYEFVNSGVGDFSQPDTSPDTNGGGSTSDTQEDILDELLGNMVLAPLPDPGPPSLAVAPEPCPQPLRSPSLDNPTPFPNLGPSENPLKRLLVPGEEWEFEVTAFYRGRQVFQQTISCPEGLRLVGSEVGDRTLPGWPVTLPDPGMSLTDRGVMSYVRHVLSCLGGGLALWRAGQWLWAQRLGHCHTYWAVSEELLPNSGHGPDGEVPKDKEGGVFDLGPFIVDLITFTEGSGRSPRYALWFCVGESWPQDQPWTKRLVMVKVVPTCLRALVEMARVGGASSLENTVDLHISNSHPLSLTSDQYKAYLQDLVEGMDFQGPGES
Method: protein-binding microarray
Form: double-stranded DNA, one strand shown
Medium: in vitro
Tested at: 2540 nM top
Setting: 60-bp whole probe
With: salmon DNA 0.4 mg/ml
Reference: random background probes
Reading: higher = stronger binding
All sequences stand within: GCCTAGCAC … GTCTTGATTCGCTTGACGCTGCTG
| Oligonucleotide | fitted relative affinity [z-score] |
| --- | --- |
| ACTCGTTTACATTTTCCAAAGTGCTAG | 2.58 |
| TCAATTATTGTTTCCTCACTGTGCTAG | 2.28 |
| ATAGGACTGCTACTGCTTTAGTGCTAG | -0.745 |
| TTAGATTTCAGCCTGGATTAGTGCTAG | -0.17 |
| TTAGGACTGGGTCTCTGTTAGTGCTAG | -0.664 |
| TCACCTTTGCTTTCCTGACTGTGCTAG | 1.56 |
| TCAGGTTTCGGTCTCGGTTAGTGCTAG | 8.56 |
| TACGGTTCCGGTTTCGGGACGTGCTAG | 5.63 |
| GACGATTTAAGTTCCGAGACGTGCTAG | 0.825 |
| GACGGTAACGGTATCGGGACGTGCTAG | 0.742 |
| ACATCTCTCTTAAATAGGGACGTGCTA | 0.99 |
| GGCGAACTGAGTCTCGAGACGTGCTAG | -0.576 |
| CCTCATCTTCCTCTGCCACAGTGCTAG | 1.22 |
| TTAGTTTTCAGTCTCGATTAGTGCTAG | 3.96 |
| TTAGCTATCGGGTTTCGATTAGTGCTA | 1.78 |
| TTAGGTCTCCTTCTCGTTTAGTGCTAG | 4.73 |
| CATGAACTGTTTCTTGAAAAGTGCTAG | 0.521 |
| TTAGCTCTCCTTATCCTTTAGTGCTAG | 1.83 |
| TTAGGTCGCCTTCTCCTTTAGTGCTAG | 1.94 |
| TGAGATTTCAGTTCCGATTAGTGCTAG | 3.59 |
| GAGGATCTCAGTTTCGAGACGTGCTAG | 2.06 |
| GTAGGACTGGGGTATCGGTTAGTGCTA | -0.219 |
| TTGTCTTTTCATTTTCTTTAGTGCTAG | 3.27 |
| GACGGTTTCCTTTGCCTGACGTGCTAG | 5.48 |

Block 4
Target: Ras GTPase-activating protein-binding protein 1, RRM domain (G3BP1, Homo sapiens, UniProt Q13283)
UniProt Q13283, sequence (whole entry, looked up): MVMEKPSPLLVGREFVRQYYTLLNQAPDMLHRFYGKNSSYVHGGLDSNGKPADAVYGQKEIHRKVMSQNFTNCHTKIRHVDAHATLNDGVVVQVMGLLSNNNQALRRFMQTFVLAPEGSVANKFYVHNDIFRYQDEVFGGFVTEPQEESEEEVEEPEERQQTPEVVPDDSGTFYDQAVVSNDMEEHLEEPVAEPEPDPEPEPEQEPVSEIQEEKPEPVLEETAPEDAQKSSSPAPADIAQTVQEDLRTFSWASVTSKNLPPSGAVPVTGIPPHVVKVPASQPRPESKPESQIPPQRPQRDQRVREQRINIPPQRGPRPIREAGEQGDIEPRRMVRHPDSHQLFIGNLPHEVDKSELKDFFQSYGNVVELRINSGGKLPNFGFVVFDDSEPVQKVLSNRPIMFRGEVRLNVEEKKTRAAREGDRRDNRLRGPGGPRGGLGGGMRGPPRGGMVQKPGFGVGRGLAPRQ
Method: RNA Bind-n-Seq
Form: RNA
Medium: in vitro
Tested at: 1 µM
Setting: whole 134-nt RNA, ends assumed
With: 150 mM KCl
Reference: input library
Reading: higher = stronger binding
All sequences stand within: GGGAGUUCUACAGUCCGACGAUC … UGGAAUUCUCGGGUGUCAAGG
| Oligonucleotide | log2 enrichment |
| --- | --- |
| CAAGUCCUGUGCUACACAUCGUAUGUACCGAAUCGGGAAAGGGAAAGGGUUUGGGAAAGUAUUAUGUUACGCCGUUCGGAUCUGCACUUC | 0.717 |
| UCCUGUGCUACACAUCGUAUGUACCGAAUCGGUUUUUUGGGUUUUUUGGUUUUUUGGGGAAAGUAUUAUGUUACGCCGUUCGGAUCUGCA | -0.293 |
| UAACUUUAGAGGACGAUCUGAUGGAUAUGGCAGUGGACGUGGAUUUGGGGAUGGCUAUAAUGGGUAUGGAGGAGGACCUGGAGGUGGCAA | -0.399 |
| CACAGACAACACGCACCCACACAGACACAGAGGGAAGGGGUUGGGAUAGGGACAGGGUGCACAGCAGGGCGGGGUAGGACCCCAGCCCCU | -0.0841 |
| ACCAUGCAGGUGGGCAUCUUUGGGAAGUGGGGCAAGGGGGGGAUAGGGAGGGGGGUAACACUUUGGGAACAGGUGGUCCCAGGUAGUUUC | 0.818 |
| UGGGAGGUGGAUUUUGUUUAUUUUUUUAGCUCAUUUCCAGGGGUGGGAAUUUUUUUUUAAUAUGUGUCAUGAAUAAAGUUUUUUUUGAAA | 2.02 |
| UCCUAGUAUUCUGGCCGUUCAGAGAUCUGCAAUCCUCAAGAAGCAGCAACAGCAGCAGCAGCAACAACAACAUCAAGCCUCAUCUAAUAG | -0.00926 |
| AGUCCUGUGCUACACAUCGUAUGUACCGAAUCGGGGAAAGGGGUUUUUGGGGAGGGGAAAGUAUUAUGUUACGCCGUUCGGAUCUGCACU | 1.22 |
| ACCAUGCAGGUGUGCAUCUUUGGGAAGUGGGGCAAGGGGGGGAUAGGGAGGGGGGUAACACUUUGGGAACAGGUGGUCCCAGGUCGUUUC | -0.552 |
| GCAGGAAGUAAAAACAAAUGGAAAUGCUUCGGAUAGUGGCGGGGGUGGGGGUUGCUAAGGAAAGGGUGGGAUGGGAGUGGGUAAAGAGUU | 1.11 |

Some of these lines once more (block 1):
| Substitution | normalised enrichment score |
| --- | --- |
| PMIAKNLMCGLDE [E10G] | -0.112 |
| PMIAINLMCELDE [K5I] | 0.0582 |
| PGIAKNLMCELDE [M2G] | 0.0477 |
| PMIAKNLNCELDE [M8N] | -0.125 |
| PMIAKNLMCEDDE [L11D] | -0.326 |
| PMIMKNLMCELDE [A4M] | -0.0223 |
| PMIAKNLMCENDE [L11N] | -0.0427 |
| PMIAFNLMCELDE [K5F] | -0.147 |
| PMIANNLMCELDE [K5N] | 0.0778 |
| PMMAKNLMCELDE [I3M] | 0.0539 |
| PMHAKNLMCELDE [I3H] | -0.175 |
| PMIAENLMCELDE [K5E] | 0.00454 |
| PMIIKNLMCELDE [A4I] | 0.161 |
